Experimental data collected from several papers.
± marks the error that the study gave.

Structure (SMILES) = CCCC[C@H](NC(=O)CNC(=O)CNC(=O)CN1CCN(CC(=O)O)CCN(CC(=O)O)CC1)C(=O)N[C@H]1CC(=O)NCCCC[C@@H](C(N)=O)NC(=O)[C@H](Cc2c[nH]c3ccccc23)NC(=O)[C@H](CCCNC(=N)N)NC(=O)[C@@H](Cc2ccccc2)NC(=O)[C@H](Cc2c[nH]cn2)NC1=O [technetium-99m labelled]; host = C57 mouse; sample = tumor; route = iv; dose = 0.037 MBq; time = 2 h; tissue uptake = 19.8 ± 3.62 %ID/g
Structure (SMILES) = CSCC[C@H](NC(=O)[C@H](CC(C)C)NC(=O)[C@H](Cc1c[nH]cn1)NC(=O)CNC(=O)[C@@H](NC(=O)[C@H](C)NC(=O)[C@H](Cc1c[nH]c2ccccc12)NC(=O)[C@H](CCC(N)=O)NC(=O)CCOCCOCCOCCOCCNC(=O)CN1CCN(CC(=O)O)CCN(CC(=O)O)CCN(CC(=O)O)CC1)C(C)C)C(N)=O [indium-111 labelled]; host = Swiss nu/nu mouse, male, PC-3 tumour xenograft; sample = tumour; route = intravenous; dose = 10 pmol; time = 1 h; tissue uptake = 2.3 ± 0.5 %ID/g
Structure (SMILES) = CC(C)C[C@H](NC(=O)[C@@H](CCCCNC(=O)CCCCCNC(=O)CN1CCN(CC(=O)O)CCN(CC(=O)O)CCN(CC(=O)O)CC1)NC(=O)[C@H](Cc1ccc(O)cc1)NC(=O)[C@H](CO)NC(=O)[C@H](Cc1c[nH]c2ccccc12)NC(=O)[C@H](Cc1cnc[nH]1)NC(=O)[C@@H]1CCC(=O)N1)C(=O)N[C@@H](CCCNC(=N)N)C(=O)N1CCC[C@H]1C(=O)NCC(N)=O [indium-111 labelled]; host = female athymic nude mouse; sample = tumor; route = intravenous; dose = 0.037 MBq; time = 4 h; tissue uptake = 0.15 ± 0.05 %ID/g
Structure (SMILES) = CCCC[C@H](NC(=O)CNC(=O)CNC(=O)CN1CCN(CC(=O)O)CCN(CC(=O)O)CCN(CC(=O)O)CC1)C(=O)N[C@H]1CC(=O)NCCCC[C@@H](C(N)=O)NC(=O)[C@H](Cc2c[nH]c3ccccc23)NC(=O)[C@H](CCCNC(=N)N)NC(=O)[C@@H](Cc2ccccc2)NC(=O)[C@H](Cc2c[nH]cn2)NC1=O [lutetium-177 labelled]; host = C57 mouse, female; sample = pancreas; route = intravenous; dose = 0.037 MBq; time = 0.5 h; tissue uptake = 0.88 ± 0.32 %ID/g
Structure (SMILES) = Cc1cc(O)cc(C)c1C[C@H](NC(=O)[C@@H]1CCCN1C(=O)[C@H](CCCNC(=N)N)NC(=O)[C@H](CCCNC(=N)N)N(C)C(=O)[C@@H]1CCCN1C(=O)[C@H](CCCCN)NC(=O)[C@@H](CC(C)C)NC(=O)[C@@H](CC(C)C)NC(=O)[C@@H](CC(C)C)NC(=O)[C@@H](CC(C)C)NC(=O)CN1CCN(CC(=O)O)CCN(CC(=O)O)CCN(CC(=O)O)CC1)C(=O)N[C@H](C(=O)N[C@@H](CC(C)C)C(=O)O)C(C)(C)C [lutetium-177 labelled]; host = CF-1 mouse; sample = kidney; route = iv; dose = 370 kBq; time = 24 h; tissue uptake = 44 ± 6.92 %ID/g
Structure (SMILES) = N=C(N)NCCC[C@@H]1NC(=O)[C@H](CCCCNC(=O)CCOCCOCCOCCOCCNC(=O)CC[C@H](NC(=O)CCOCCOCCOCCOCCNC(=O)CN2CCN(CC(=O)O)CCN(CC(=O)O)CCN(CC(=O)O)CC2)C(=O)NCCOCCOCCOCCOCCC(=O)NCCCC[C@@H]2NC(=O)[C@@H](Cc3ccccc3)NC(=O)[C@H](CC(=O)O)NC(=O)CNC(=O)[C@H](CCCNC(=N)N)NC2=O)NC(=O)[C@@H](Cc2ccccc2)NC(=O)[C@H](CC(=O)O)NC(=O)CNC1=O [copper-64 labelled]; host = athymic nu/nu mouse, female; sample = kidney; route = intravenous; time = 4 h; tissue uptake = 2.81 ± 0.36 %ID/g
Structure (SMILES) = CC(C)[C@H](NC(=O)[C@@H]1CCCN1C(=O)[C@H](CCCNC(=N)N)NC(=O)[C@H](CS)NC(=O)[C@H](Cc1c[nH]c2ccccc12)NC(=O)[C@H](CCCNC(=N)N)NC(=O)[C@@H](Cc1ccccc1)NC(=O)[C@H](Cc1c[nH]cn1)NC(=O)[C@H](CCC(=O)O)NC(=O)[C@H](CS)NC(=O)[C@H](CS)NC(=O)[C@H](CCCCN)NC(=O)[C@@H]1CC(=O)N[C@@H](CCCNC(=N)N)C(=O)N[C@H](Cc2ccccc2)C(=O)N[C@@H](CC(=O)O)C(=O)N[C@H](Cc2ccc(O)cc2)C(=O)N1)C(N)=O [technetium-99m labelled]; host = C57 mouse, female; sample = intestine; route = intravenous; dose = 0.037 MBq; time = 2 h; tissue uptake = 2.58 ± 1.38 %ID
Structure (SMILES) = Cc1cc(O)cc(C)c1C[C@H](NC(=O)[C@@H]1CCCN1C(=O)[C@H](CCCNC(=N)N)NC(=O)[C@H](CCCNC(=N)N)N(C)C(=O)[C@@H]1CCCN1C(=O)[C@@H](CC(C)C)NC(=O)[C@@H](CC(C)C)NC(=O)[C@@H](CC(C)C)NC(=O)[C@@H](CC(C)C)NC(=O)[C@H](CCCCN)NC(=O)CN1CCN(CC(=O)O)CCN(CC(=O)O)CCN(CC(=O)O)CC1)C(=O)N[C@H](C(=O)N[C@@H](CC(C)C)C(=O)O)C(C)(C)C [lutetium-177 labelled]; host = CF-1 mouse; sample = liver; route = iv; dose = 370 kBq; time = 24 h; tissue uptake = 4.73 ± 0.75 %ID/g
Structure (SMILES) = N=C(N)NCCC[C@@H]1NC(=O)[C@H](CCCCNC(=O)CNC(=O)CNC(=O)CNC(=O)CC[C@H](NC(=O)CNC(=O)CNC(=O)CNC(=O)CN2CCN(CC(=O)O)CCN(CC(=O)O)CCN(CC(=O)O)CC2)C(=O)NCC(=O)NCC(=O)NCC(=O)NCCCC[C@@H]2NC(=O)[C@@H](Cc3ccccc3)NC(=O)[C@H](CC(=O)O)NC(=O)CNC(=O)[C@H](CCCNC(=N)N)NC2=O)NC(=O)[C@@H](Cc2ccccc2)NC(=O)[C@H](CC(=O)O)NC(=O)CNC1=O [copper-64 labelled]; host = athymic nu/nu mouse, female; sample = muscle; route = intravenous; time = 4 h; tissue uptake = 0.86 ± 0.08 %ID/g
Structure (SMILES) = CC(C)C[C@H](NC(=O)CN1CCN(CC(=O)O)CCN(CC(=O)O)CC1)C(=O)N[C@@H](CC(C)C)C(=O)N[C@@H](CC(C)C)C(=O)N[C@@H](CC(C)C)C(=O)N[C@@H](CCCNC(=N)N)C(=O)N[C@H](C(=O)N[C@@H](CCCCN)C(=O)N[C@@H](CCCNC(=N)N)C(N)=O)C(C)C [copper-64 labelled]; host = CD1 mouse, male; sample = heart; route = intravenous; time = 15 min; tissue uptake = 7.4 ± 0.4 %ID/g
Structure (SMILES) = Cc1cc(O)cc(C)c1C[C@H](NC(=O)[C@@H]1CCCN1C(=O)[C@H](CCCNC(=N)N)NC(=O)[C@H](CCCNC(=N)N)N(C)C(=O)[C@@H]1CCCN1C(=O)[C@@H](CC(C)C)NC(=O)[C@@H](CC(C)C)NC(=O)[C@H](CCCCN)NC(=O)[C@@H](CC(C)C)NC(=O)[C@@H](CC(C)C)NC(=O)CN1CCN(CC(=O)O)CCN(CC(=O)O)CCN(CC(=O)O)CC1)C(=O)N[C@H](C(=O)N[C@@H](CC(C)C)C(=O)O)C(C)(C)C [lutetium-177 labelled]; host = CF-1 mouse; sample = kidney; route = iv; dose = 370 kBq; time = 24 h; tissue uptake = 48.8 ± 9.59 %ID/g

Some of these lines once more:
Structure (SMILES) = CSCC[C@H](NC(=O)[C@H](CC(C)C)NC(=O)[C@H](Cc1c[nH]cn1)NC(=O)CNC(=O)[C@@H](NC(=O)[C@H](C)NC(=O)[C@H](Cc1c[nH]c2ccccc12)NC(=O)[C@H](CCC(N)=O)NC(=O)CCOCCOCCOCCOCCNC(=O)CN1CCN(CC(=O)O)CCN(CC(=O)O)CCN(CC(=O)O)CC1)C(C)C)C(N)=O [indium-111 labelled]; host = Swiss nu/nu mouse, male, PC-3 tumour xenograft; sample = tumour; route = intravenous; dose = 10 pmol; time = 1 h; tissue uptake = 2.3 ± 0.5 %ID/g
